Measurements collected from several papers.
Every numbered part comes from another study and shows a few of its results, in no order. Positions count from the first letter of the parent shown.
Sequence of UniProt Q8N752 (whole entry, looked up): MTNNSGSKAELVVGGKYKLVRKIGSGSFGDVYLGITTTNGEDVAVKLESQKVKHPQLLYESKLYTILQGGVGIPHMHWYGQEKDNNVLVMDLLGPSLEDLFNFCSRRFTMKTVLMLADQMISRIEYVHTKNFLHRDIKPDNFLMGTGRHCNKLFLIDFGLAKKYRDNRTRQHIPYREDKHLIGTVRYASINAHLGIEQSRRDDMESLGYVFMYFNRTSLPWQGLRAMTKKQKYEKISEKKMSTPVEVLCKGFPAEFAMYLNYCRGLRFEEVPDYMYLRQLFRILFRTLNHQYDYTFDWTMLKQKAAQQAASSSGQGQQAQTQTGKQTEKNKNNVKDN
Sequence of UniProt O96017 (whole entry, looked up): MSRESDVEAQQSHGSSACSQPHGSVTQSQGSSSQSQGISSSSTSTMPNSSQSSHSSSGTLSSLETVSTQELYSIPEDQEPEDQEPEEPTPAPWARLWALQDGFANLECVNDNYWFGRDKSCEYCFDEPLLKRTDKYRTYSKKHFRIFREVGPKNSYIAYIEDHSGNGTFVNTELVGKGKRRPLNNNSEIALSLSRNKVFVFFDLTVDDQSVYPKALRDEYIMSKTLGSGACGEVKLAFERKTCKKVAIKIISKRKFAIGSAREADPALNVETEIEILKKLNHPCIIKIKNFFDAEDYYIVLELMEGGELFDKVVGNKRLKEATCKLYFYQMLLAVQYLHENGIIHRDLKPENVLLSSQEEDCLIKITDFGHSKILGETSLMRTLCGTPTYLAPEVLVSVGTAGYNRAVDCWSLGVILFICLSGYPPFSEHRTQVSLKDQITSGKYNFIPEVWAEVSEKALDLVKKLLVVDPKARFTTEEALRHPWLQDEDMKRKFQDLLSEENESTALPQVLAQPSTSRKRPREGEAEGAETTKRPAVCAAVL
Sequence of UniProt Q52WX2 (whole entry, looked up): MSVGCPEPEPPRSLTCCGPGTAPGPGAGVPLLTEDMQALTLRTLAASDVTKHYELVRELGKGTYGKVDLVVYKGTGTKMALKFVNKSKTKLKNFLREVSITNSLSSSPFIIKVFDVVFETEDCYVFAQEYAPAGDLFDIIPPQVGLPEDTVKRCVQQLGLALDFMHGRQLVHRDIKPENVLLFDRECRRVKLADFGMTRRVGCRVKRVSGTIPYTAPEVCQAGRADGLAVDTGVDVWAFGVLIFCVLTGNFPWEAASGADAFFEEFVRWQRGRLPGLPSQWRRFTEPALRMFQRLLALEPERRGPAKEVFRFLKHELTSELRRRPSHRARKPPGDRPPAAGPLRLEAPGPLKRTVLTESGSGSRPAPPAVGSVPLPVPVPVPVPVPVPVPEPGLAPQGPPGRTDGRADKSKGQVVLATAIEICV
Sequence of UniProt P42681 (whole entry, looked up): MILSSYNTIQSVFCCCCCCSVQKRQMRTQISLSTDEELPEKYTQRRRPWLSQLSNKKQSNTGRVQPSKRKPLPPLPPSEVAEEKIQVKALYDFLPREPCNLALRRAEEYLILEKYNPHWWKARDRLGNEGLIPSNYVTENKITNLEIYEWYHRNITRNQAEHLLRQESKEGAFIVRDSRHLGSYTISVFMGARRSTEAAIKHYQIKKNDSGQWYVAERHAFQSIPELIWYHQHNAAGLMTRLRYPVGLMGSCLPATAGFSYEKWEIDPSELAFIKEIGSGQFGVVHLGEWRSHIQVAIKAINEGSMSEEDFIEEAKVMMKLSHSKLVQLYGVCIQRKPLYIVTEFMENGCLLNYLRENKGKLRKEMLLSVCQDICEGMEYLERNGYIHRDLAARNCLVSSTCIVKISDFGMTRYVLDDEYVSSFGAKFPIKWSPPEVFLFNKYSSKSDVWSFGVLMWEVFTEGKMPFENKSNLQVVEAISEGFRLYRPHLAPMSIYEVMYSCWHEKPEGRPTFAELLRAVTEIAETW
Sequence of UniProt O94921 (whole entry, looked up): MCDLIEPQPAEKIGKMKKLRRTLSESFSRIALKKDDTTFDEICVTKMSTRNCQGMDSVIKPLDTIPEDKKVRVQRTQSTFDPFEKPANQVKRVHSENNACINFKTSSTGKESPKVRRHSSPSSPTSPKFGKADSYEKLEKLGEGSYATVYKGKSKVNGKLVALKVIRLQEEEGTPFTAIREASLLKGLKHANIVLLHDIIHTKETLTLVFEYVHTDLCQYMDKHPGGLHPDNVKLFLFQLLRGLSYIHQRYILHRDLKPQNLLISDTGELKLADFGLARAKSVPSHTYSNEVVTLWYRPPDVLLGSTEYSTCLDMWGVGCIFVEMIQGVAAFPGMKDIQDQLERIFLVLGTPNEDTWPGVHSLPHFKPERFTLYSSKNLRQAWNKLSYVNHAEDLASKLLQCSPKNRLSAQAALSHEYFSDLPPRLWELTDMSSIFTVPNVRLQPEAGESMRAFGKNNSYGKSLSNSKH
Sequence of UniProt P48730 (whole entry, looked up): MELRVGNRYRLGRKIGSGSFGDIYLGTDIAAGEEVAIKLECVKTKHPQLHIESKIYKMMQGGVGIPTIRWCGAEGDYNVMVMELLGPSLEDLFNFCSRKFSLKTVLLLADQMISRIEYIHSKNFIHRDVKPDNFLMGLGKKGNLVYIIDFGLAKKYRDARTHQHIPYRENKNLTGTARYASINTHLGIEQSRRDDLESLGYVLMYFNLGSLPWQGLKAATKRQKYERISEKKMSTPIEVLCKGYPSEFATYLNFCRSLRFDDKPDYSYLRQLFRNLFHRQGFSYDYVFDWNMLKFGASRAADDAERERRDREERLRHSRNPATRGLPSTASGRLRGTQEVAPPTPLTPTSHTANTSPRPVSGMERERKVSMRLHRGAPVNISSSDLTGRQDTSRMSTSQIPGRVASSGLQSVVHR
Sequence of UniProt P36896 (whole entry, looked up): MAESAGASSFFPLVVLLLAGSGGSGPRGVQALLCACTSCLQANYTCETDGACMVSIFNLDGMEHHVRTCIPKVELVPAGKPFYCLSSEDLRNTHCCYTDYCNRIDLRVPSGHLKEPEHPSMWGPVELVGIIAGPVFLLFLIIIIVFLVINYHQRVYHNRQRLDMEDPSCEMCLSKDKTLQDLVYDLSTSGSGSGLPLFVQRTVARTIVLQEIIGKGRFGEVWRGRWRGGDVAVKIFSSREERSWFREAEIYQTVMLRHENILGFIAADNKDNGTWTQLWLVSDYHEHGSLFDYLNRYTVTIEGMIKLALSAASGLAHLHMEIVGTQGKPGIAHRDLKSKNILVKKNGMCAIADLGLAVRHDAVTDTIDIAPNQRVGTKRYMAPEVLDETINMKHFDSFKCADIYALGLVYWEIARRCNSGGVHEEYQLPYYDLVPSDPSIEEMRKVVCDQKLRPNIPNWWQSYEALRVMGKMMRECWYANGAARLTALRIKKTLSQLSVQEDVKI
Sequence of UniProt Q9Y4K4 (whole entry, looked up): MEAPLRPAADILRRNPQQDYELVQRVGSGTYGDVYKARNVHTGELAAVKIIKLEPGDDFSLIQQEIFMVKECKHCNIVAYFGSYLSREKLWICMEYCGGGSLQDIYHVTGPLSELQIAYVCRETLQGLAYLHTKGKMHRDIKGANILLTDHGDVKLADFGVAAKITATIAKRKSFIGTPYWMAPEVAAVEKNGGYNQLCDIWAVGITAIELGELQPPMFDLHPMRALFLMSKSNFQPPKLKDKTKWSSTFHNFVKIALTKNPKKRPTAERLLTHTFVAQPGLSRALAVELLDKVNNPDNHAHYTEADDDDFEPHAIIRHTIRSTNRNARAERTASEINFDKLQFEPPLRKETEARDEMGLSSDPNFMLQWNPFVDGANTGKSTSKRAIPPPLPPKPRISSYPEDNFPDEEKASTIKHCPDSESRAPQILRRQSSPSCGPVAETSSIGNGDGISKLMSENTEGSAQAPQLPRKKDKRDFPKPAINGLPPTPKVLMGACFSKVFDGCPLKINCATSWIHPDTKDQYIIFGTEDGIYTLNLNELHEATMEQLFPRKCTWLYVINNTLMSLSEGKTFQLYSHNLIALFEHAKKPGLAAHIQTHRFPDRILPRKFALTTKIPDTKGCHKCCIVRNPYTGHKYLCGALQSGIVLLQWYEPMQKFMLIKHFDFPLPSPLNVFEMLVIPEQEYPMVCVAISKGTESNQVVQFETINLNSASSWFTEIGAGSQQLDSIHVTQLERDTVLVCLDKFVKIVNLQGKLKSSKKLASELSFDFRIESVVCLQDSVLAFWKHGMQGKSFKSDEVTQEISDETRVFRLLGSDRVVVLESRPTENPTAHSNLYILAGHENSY
Sequence of UniProt Q8NFD2 (whole entry, looked up): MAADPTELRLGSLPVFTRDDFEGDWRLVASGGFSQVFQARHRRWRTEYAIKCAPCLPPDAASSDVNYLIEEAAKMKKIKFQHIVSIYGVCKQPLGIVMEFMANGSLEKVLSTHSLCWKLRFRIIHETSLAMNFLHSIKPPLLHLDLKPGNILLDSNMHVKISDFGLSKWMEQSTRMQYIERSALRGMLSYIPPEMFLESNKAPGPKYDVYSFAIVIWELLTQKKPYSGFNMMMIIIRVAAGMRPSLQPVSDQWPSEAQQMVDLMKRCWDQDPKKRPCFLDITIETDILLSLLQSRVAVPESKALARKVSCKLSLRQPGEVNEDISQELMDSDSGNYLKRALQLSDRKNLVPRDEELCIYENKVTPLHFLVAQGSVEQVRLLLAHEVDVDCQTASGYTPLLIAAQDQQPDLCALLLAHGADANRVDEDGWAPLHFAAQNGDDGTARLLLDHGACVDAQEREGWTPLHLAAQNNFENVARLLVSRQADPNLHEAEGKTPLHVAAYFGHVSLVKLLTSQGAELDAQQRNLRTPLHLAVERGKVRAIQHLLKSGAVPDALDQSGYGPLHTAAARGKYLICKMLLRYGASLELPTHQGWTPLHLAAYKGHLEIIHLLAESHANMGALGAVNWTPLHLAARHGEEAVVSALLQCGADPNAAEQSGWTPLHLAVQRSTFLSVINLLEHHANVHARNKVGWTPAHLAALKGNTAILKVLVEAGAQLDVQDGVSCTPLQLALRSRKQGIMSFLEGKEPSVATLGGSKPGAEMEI

Sample 1
Structure (SMILES): Cc1c(C(=O)O)cc(-c2ccc(C3CCNCC3)cc2)c2ccc(-c3ccc(C(F)(F)F)cc3)cc12
Concentration: 1 µM
Quantity: remaining binding
CSNK1A1L (Homo sapiens, UniProt Q8N752); cell-free assay, competition with immobilised ligand: 100%
MAP4K5 (Homo sapiens, UniProt Q9Y4K4); binding, competition with immobilised ligand: 100%
EGFR (Homo sapiens, UniProt P00533, L858R); cell-free assay, competition with immobilised ligand: 100%
TXK (Homo sapiens, UniProt P42681); binding, competition with immobilised ligand: 100%
PLK2 (Homo sapiens, UniProt Q9NYY3); binding, competition with immobilised ligand: 100%
MYLK4 (Homo sapiens, UniProt Q86YV6); cell-free assay, competition with immobilised ligand: 100%
CHEK2 (Homo sapiens, UniProt O96017); binding, competition with immobilised ligand: 100%
SBK1 (Homo sapiens, UniProt Q52WX2); binding, competition with immobilised ligand: 100%
MET (Homo sapiens, UniProt P08581, Y1235D); cell-free assay, competition with immobilised ligand: 100%
NUAK1 (Homo sapiens, UniProt O60285); binding, competition with immobilised ligand: 100%
AAK1 (Homo sapiens, UniProt Q2M2I8); binding: 100%
EGFR (Homo sapiens, UniProt P00533, T790M); cell-free assay, competition with immobilised ligand: 87%
CDK14 (Homo sapiens, UniProt O94921); binding, competition with immobilised ligand: 100%
CSNK1D (Homo sapiens, UniProt P48730); cell-free assay, competition with immobilised ligand: 100%
ACVR1B (Homo sapiens, UniProt P36896); cell-free assay, competition with immobilised ligand: 100%
KIT (Homo sapiens, UniProt P10721, L576P); binding, competition with immobilised ligand: 100%
ANKK1 (Homo sapiens, UniProt Q8NFD2); binding, competition with immobilised ligand: 100%

Sample 2
Target: TAR DNA-binding protein 43, full length, His tag (TARDBP, Homo sapiens, UniProt Q13148, residues 1-414)
Technique: RNA Bind-n-Seq
Form: RNA
Medium: in vitro
Concentration: 20 nM
Setting: 6-mer, flanks averaged, single round
Added: 150 mM LiCl
Reference: input library
Reading: higher = stronger binding
Quantity: 6-mer enrichment (R)
CCUGUU: 1.01
GUUAAC: 0.909
AGUCUG: 0.905
GGGGGC: 1.44
UUUUAU: 1.4
AUGCAA: 0.887
GCUGUU: 1.07
ACCUGA: 0.853

Sample 3
Target: CCND2, cyclin fold, Cln2 fusion (human)
Technique: yeast growth competition, sequencing
Medium: yeast
Setting: weak parent motif
Reference: not given
Reading: higher = stronger binding
Quantity: normalised enrichment score
Starting sequence: CDC25A docking peptide (human); PPHRRRLLFACSP; partner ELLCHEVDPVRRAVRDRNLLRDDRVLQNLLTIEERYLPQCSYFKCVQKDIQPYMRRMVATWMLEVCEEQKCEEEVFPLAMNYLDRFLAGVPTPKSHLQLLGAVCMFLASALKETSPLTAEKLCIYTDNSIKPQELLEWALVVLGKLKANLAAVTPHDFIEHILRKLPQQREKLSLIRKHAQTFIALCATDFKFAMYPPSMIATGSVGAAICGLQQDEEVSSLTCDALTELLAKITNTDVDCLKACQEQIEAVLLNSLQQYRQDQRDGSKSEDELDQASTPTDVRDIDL
PPARRRLLFACSP [H3A]: 0.0194
PPHRQRLLFACSP [R5Q]: 0.394
PPHRRRLLFLCSP [A10L]: -0.296
PPHRRRLGFACSP [L8G]: 0.152
PPHRRRLLFACVP [S12V]: 0.174
PPHRRRLLAACSP [F9A]: 0.318
PPHRRRLLFACQP [S12Q]: -0.129
PPHRRRLKFACSP [L8K]: 0.241

Mixed results
CCn1c(C)c(C)c2c(-c3ccccc3)c(C(OC(C)(C)C)C(=O)O)c(C)nc21 (centres unmarked)
remaining compound (human, microsomes or S9; 2 µM, 0.5 h): > 100%

CC(C)n1cnc(-c2ccc(F)cc2)c1-c1ncc(C(=O)Nc2ccc(N3CCN(C)CC3)cc2)[nH]1
patients with TEAE (phase 2a trial; idiopathic pulmonary fibrosis patients; oral, 60 mg once daily, musculoskeletal disorders, grade 4): 0%

Excerpt of the above (sample 1):
CHEK2 (Homo sapiens, UniProt O96017); binding, competition with immobilised ligand: 100%
ANKK1 (Homo sapiens, UniProt Q8NFD2); binding, competition with immobilised ligand: 100%
EGFR (Homo sapiens, UniProt P00533, T790M); cell-free assay, competition with immobilised ligand: 87%
